Assay results of several laboratories.
± gives the spread as reported.

Structure (SMILES) | test | system | conditions | how to read | quantity | result
COc1cc(C(=O)NC2CCN(C)CC2)c(F)cc1Nc1ncc(C(F)(F)F)c(Oc2cccc3c2C(=O)N(C)C3)n1 |  | human patients, plasma | oral, 25 mg single dose, geometric mean |  | mean residence time | 30.1 h
Cn1cc(-c2nc(N[C@@H]3CCCC[C@@H]3N)c(F)c3c2C(=O)NC3)cn1 | item: Mouth haemorrhage | patients with relapsed or refractory AML | oral, 60 mg once daily |  | hemorrhagic adverse events | 25%
Clc1cc2c(cc1Cl)Oc1c(ccc(Cl)c1Cl)O2 | ultrafiltration | cow milk whey | 20 nM nominal in whole milk |  | dose fraction in permeate | 13.3%
O=c1c2cc(Cl)c(CO)cc2[nH]c(=S)n1Cc1cncnc1 |  | mouse, plasma | intravenous |  | clearance | 115 mL/min/kg
CNC(=O)c1cc(Oc2ccc(NC(=O)Nc3cc(C(C)(C)C)nn3-c3ccc4ncccc4c3)c(F)c2)ccn1 | retinal vein occlusion, NCI CTC v3.0 | human patients | oral, 100 mg twice daily, tablet, dose at onset |  | related SAE | 6%
CC(C)[C@@H]1CC[C@@H](C)C[C@@H]1O | acute oral toxicity OECD | Swiss albino mice, serum | oral, 300 mg/kg |  | HDL cholesterol | 25.7 ± 8.97 mg/dL
C=C(CN(C(=O)c1c(C(F)F)nn(C)c1F)C1CC1)c1ccc(Cl)cc1Cl | static acute toxicity test | zebrafish (Brachydanio rerio) | 0.694 mg a.i./L, 96 h |  | mortality | 10%
CN[C@@H](C)C(=O)N[C@H]1CN(S(=O)(=O)c2cccc(S(=O)(=O)N3CC[C@H]4CC[C@@H](C(=O)NC(c5ccccc5)c5ccccc5)N4C(=O)[C@@H](NC(=O)[C@H](C)NC)C3)c2)CC[C@H]2CC[C@@H](C(=O)NC(c3ccccc3)c3ccccc3)N2C1=O |  | patients with advanced solid tumours | 45 mg, phase I monotherapy |  | treatment-related facial nerve disorder incidence | 60%
CCc1ccc(CC/C=C/c2ccc3c(c2)C(=O)CC3)cc1 |  | Sprague-Dawley rat, male | oral, 120 mg/kg/day, 14 days |  | HDW | 24 g/L
Cc1cc(Nc2ncc(Cl)c(Nc3ccccc3S(=O)(=O)C(C)C)n2)c(OC(C)C)cc1C1CCNCC1 |  | advanced solid tumour patients | oral, daily, together with: gemcitabine + cisplatin |  | MTD | 450 mg
COc1ccc(-c2c(-c3ccc(C#N)c(F)c3)nc(N3CCC(N)CC3)n(C)c2=O)cc1F | item: tumor pain | human patients | oral, dose not given, dose escalation, NG |  | serious adverse event incidence | 2%
CN1CCN(S(=O)(=O)c2cc([N+](=O)[O-])ccc2N(CCOS(C)(=O)=O)CCOS(C)(=O)=O)CC1 |  | naive NSG mice, plasma | intraperitoneal, 5 mg/kg |  | apparent volume Vz/F | 1.73 (mg/kg)/(µM)
N.N.[Cl][Pt][Cl] | histopathology | tumour-free KSN/Slc nude mice, liver and kidney | dose not given, 10 days |  | lesion area | 7.49e+06 µm2
O=[N+]([O-])NC1=NCCN1Cc1ccc(Cl)nc1 | ultrafiltration | cow milk whey | 2000 nM nominal in whole milk |  | dose fraction in permeate | 58.5%
C[C@]1(O)C[C@@](N)(c2ccc(-c3nc4n(c3-c3ccccc3)COc3ccncc3-4)cc2)C1 |  | human, advanced or metastatic solid tumours | 24 mg intermittent, phase I dose escalation |  | patients with Diarrhea TEAE | 0%
COc1cc2c(Oc3ccc4[nH]c(C)cc4c3F)ccnc2cc1OCC1(N)CC1 |  | paediatric refractory sarcoma patients | 8 mg |  | Proteinuria incidence | 25%
CO[C@H]1C[C@@H]2CC[C@@H](C)[C@@](O)(O2)C(=O)C(=O)N2CCCC[C@H]2C(=O)O[C@H]([C@H](C)C[C@@H]2CC[C@@H](OC(=O)NCCOCCOCCOCCOCCOCCOCCOCCOCCC(=O)N3CCc4cc(Cn5nc(-c6ccc7oc(N)nc7c6)c6c(N)ncnc65)ccc4C3)[C@H](OC)C2)C[C@@H](O)[C@H](C)/C=C(\C)[C@@H](O)[C@@H](OC)C(=O)[C@H](C)C[C@H](C)/C=C/C=C/C=C/1C |  | patients with advanced solid tumours | intravenous, 1.6 mg/3 mg weekly, any grade |  | incidence of Constipation TEAE | 20%
CC(=O)c1c(C)c2cnc(Nc3ccc(C4CCN(CCS(C)(=O)=O)CC4)cn3)nc2n(C2CCCC2)c1=O |  | human, dose-escalation trial, plasma | oral, 150 mg twice daily, day 21, multiple doses |  | Cmax | 391 ng/mL
CCN1CCN(Cc2ccc(Nc3ncc(F)c(-c4cc(F)c5nc6n(c5c4)[C@H](C)CCC6)n3)nc2)CC1 |  | advanced solid tumour patients | dose not given, Phase Ia monotherapy |  | Leukopenia incidence, any grade | 54.2%
COc1ncccc1-c1cnn2ccc(N3CCN(C(=O)OC(C)C)CC3)nc12 |  | rat CCI model, plasma | oral, 30 mg/kg, 210 min |  | free concentration | 96 nM
NC(=O)N1c2ccccc2C=Cc2ccccc21 | PAMPA |  | 200 µM, 5 h, pH 7.4 |  | membrane retention | 10.2%
O=C(Nc1ccccc1)C1CCN(C(=O)Oc2cccnc2)CC1 | Bond-Lader VAS | healthy women | oral, 100 mg | reference: pre-dose baseline, direction not given | change in withdrawn–gregarious score | 6.8
O=C(O)CCc1ccccc1 |  | human plasma | 5 µM, 6 h |  | fraction unbound | 0.09
C[C@@H](NC(=O)N1C(=O)[C@H](Cc2ccnc(N)c2)[C@H]1C(=O)O)C1CCCCC1 |  | healthy Chinese adult volunteers | continuous intravenous infusion, dose not given, 5.0 days, all doses pooled |  | subjects with abnormal liver function | 10%
C[C@]1(CO)Cc2ncn(-c3ccc(C#N)c(Cl)c3)c2C(=O)O1 |  | human, plasma | 80 mg single dose, geometric mean |  | half-life | 6.3 h
